Published values collected from several papers.
Every numbered part comes from another study and shows a few of its results, in no order.

Sample 1 — technique: competition protein-binding microarray; molecule type: double-stranded DNA, one strand shown; matrix: in vitro; tested at: 2 µM; added: Cbf1 competitor, 0.05 µM; reading: higher = stronger binding; quantity: fluorescence intensity
Target: Phosphate system positive regulatory protein PHO4, full length, GST-tagged (PHO4, Saccharomyces cerevisiae, UniProt P07270, residues 1-312)
Setting: whole 60-bp probe, lowest competitor level
Target sequence (chain): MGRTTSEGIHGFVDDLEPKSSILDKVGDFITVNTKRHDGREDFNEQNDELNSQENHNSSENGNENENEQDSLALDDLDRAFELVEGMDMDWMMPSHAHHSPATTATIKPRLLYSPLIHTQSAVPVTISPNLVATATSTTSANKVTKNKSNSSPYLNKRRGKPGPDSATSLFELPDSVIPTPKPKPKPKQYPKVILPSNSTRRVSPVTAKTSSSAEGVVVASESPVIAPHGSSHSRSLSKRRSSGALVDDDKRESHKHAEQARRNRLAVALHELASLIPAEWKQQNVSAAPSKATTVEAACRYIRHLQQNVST
Strand = TCATAGTTGACTGCCCATGTGGCTAATCTCAGTCTCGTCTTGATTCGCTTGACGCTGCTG; value = 10900 a.u.
Strand = CTGTAAGATAAGGGACATGTGGCCTGGGAACTCCTGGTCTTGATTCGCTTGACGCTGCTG; value = 10000 a.u.
Strand = TTTACCCATAAGTCCCACGATTATCCACTTTTTAATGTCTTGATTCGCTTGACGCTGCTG; value = 7720 a.u.
Strand = CTCAATTATGGCCTCCACGTGCGGACGGGCGGCTAGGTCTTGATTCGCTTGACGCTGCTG; value = 16100 a.u.
Strand = ATCGTAAATAAAACACACGTGCTTTCCCTACCACTTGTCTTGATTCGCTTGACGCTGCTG; value = 18700 a.u.

Sample 2 — technique: protein binding microarray; molecule type: double-stranded DNA, one strand shown; matrix: in vitro; tested at: not given; baseline: not given; reading: higher = stronger binding; quantity: E-score
Target: Histone acetyltransferase KAT6A, winged helix 2, GST fusion (KAT6A, Homo sapiens, UniProt Q92794, residues 85-181)
Setting: 8-mer, flanks averaged, mean of 2 arrays, mostly near background
Residues (chain): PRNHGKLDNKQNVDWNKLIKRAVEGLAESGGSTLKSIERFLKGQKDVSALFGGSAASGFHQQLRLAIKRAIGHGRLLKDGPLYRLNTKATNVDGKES
Strand = ACTCGGTG; value = -0.0742
Strand = CCGGTGAA; value = 0.106
Strand = ATCACGGG; value = -0.139
Strand = ATATCCTG; value = 0.039

Sample 3 — technique: protein-binding microarray; molecule type: double-stranded DNA, one strand shown; matrix: in vitro; tested at: 250 nM; setting: 60-bp whole probe; added: salmon DNA 0.4 mg/ml; baseline: random background probes; reading: higher = stronger binding; quantity: log fluorescence
Target: Interferon regulatory factor 7, full length, phosphomimetic (IRF7, Homo sapiens, UniProt Q92985, residues 1-503, S101K/S471D/S472D/S475D/S476D/S477D/S483D/S484D/S487D)
Chain of UniProt Q92985 (whole entry, unmodified, looked up): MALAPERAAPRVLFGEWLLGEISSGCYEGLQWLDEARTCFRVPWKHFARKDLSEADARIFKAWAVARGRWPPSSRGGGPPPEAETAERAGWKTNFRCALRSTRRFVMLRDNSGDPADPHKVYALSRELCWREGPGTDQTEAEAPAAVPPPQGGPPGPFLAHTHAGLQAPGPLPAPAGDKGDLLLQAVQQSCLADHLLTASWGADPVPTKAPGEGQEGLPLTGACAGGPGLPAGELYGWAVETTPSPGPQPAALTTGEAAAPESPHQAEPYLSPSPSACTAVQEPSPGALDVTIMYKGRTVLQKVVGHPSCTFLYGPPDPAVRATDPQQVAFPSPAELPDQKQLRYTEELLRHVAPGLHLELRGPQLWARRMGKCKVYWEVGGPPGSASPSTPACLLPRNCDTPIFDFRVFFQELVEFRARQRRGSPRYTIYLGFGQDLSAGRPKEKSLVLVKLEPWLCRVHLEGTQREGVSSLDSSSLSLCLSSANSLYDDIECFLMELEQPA
Strand = GCCTAGCACGACGGACGGCTTTTCCTGACGTGCTAGGTCTTGATTCGCTTGACGCTGCTG; value = -0.655 z-score
Strand = GCCTAGCACTTATATATCGGGACTGGATTAGTGCTAGTCTTGATTCGCTTGACGCTGCTG; value = 0.288 z-score
Strand = GCCTAGCACGACAGTATCCTTCTCCTGACGTGCTAGGTCTTGATTCGCTTGACGCTGCTG; value = 0.295 z-score

Other studies, line by line
Molecule = PhoQ, residues 284 288 289 292 302 303 TLSLKA; target = PhoP, residues 12 14 15 18 19 VHSCL (Escherichia coli, UniProt P23836); assay = Sort-seq, measured: YFP reporter; system = E. coli; setting = PhoQ-PhoP variant library, added: 10 µM Mg2+; scale = baseline: high Mg2+ state, higher = stronger signaling; quantity = fold induction; value = 4.69

Some of these lines once more (sample 1):
Strand = TTTACCCATAAGTCCCACGATTATCCACTTTTTAATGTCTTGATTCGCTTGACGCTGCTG; value = 7720 a.u.
